# Measured values pooled from the literature.
# Parts stem from different laboratories: compare values within a part only. Values joined by “and” are separate records of one study, mostly repeats; a detail may differ.
# Chain of UniProt Q9UKS7 (whole entry, looked up): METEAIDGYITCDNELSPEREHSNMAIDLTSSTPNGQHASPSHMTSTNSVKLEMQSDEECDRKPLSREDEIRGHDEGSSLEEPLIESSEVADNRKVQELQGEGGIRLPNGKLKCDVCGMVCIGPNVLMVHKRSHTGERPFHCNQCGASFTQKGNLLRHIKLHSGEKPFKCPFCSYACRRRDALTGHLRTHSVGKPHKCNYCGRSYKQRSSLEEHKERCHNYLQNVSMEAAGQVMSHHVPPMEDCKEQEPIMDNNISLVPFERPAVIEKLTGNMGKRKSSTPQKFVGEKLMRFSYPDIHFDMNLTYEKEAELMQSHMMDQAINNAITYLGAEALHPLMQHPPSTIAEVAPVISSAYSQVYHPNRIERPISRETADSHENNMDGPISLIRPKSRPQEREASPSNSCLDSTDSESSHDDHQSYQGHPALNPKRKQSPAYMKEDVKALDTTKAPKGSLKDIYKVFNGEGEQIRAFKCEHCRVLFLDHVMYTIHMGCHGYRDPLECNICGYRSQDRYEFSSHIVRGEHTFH
# Chain of UniProt Q96SW2 (whole entry, looked up): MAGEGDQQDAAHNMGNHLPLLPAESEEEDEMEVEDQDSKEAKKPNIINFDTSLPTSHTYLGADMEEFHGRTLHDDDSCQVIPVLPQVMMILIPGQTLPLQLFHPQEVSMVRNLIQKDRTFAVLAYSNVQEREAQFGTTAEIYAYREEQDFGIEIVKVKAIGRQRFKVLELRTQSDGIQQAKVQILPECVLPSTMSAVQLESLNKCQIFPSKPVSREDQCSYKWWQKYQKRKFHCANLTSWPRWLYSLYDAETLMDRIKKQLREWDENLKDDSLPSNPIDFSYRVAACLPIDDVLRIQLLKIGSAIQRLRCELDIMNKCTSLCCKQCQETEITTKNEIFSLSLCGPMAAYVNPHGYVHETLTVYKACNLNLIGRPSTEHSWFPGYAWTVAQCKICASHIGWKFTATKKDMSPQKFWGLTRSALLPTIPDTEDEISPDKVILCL

# Series 1
# Structure (SMILES): CCN1C(=O)C(O)(C(=O)O)Oc2cc(F)ccc21 (centres unmarked)
organism,test,test system,setting,scale,inhibition
Arabidopsis thaliana,root length,"Col-0, seedlings",50 µg/mL,baseline: water control,42.6%
Arabidopsis thaliana,hypocotyl length,Col-0,"25.0 µg/mL, 7 days, seed germination, dark",,28.4%
Arabidopsis thaliana,root length,"Col-0, seedlings",50 µg/mL,,42.6%
Arabidopsis thaliana,root length,"Col-0, seedlings",25 µg/mL,,36.4%
Amaranthus retroflexus,fresh weight,,"150 g ai/ha, post-emergence treatment",,40.6% and 41.9% and 44.5%
Avena fatua,fresh weight,,"150 g ai/ha, pre-emergence treatment",,100%
Arabidopsis thaliana,root length,"Col-0, seedlings",25 µg/mL,baseline: water control,36.4%
Glycine max,fresh weight,,"soil surface spray, 150 g ai/ha, 21 days, pre-emergence crop safety",,30.1% and 31.7% and 29.7%

# Series 2
# SMILES: C[C@@H]1CN(c2ccc(-c3cc(C(=O)NCCOCCOCCOCCOCCNC(=O)Cn4cc(-c5[nH]cc(C(=O)N[C@@H](CC(N)=O)c6ccc(F)c(Cl)c6)c5-c5ccc(Cl)cc5F)cn4)ccc3F)cc2NC(=O)c2c[nH]c(=O)cc2C(F)(F)F)C[C@H](C)N1C
# Observed: thermal unfolding
# Method: differential scanning fluorimetry
# Concentration: 5.5 µM
# Direction: higher = more unfolded
# WDR5: WD repeat-containing protein 5 (WDR5, Homo sapiens, UniProt P61964)
# DCAF1: DDB1- and CUL4-associated factor 1 (DCAF1, Homo sapiens, UniProt Q9Y4B6)
# Chain of UniProt Q9Y4B6 (whole entry, looked up): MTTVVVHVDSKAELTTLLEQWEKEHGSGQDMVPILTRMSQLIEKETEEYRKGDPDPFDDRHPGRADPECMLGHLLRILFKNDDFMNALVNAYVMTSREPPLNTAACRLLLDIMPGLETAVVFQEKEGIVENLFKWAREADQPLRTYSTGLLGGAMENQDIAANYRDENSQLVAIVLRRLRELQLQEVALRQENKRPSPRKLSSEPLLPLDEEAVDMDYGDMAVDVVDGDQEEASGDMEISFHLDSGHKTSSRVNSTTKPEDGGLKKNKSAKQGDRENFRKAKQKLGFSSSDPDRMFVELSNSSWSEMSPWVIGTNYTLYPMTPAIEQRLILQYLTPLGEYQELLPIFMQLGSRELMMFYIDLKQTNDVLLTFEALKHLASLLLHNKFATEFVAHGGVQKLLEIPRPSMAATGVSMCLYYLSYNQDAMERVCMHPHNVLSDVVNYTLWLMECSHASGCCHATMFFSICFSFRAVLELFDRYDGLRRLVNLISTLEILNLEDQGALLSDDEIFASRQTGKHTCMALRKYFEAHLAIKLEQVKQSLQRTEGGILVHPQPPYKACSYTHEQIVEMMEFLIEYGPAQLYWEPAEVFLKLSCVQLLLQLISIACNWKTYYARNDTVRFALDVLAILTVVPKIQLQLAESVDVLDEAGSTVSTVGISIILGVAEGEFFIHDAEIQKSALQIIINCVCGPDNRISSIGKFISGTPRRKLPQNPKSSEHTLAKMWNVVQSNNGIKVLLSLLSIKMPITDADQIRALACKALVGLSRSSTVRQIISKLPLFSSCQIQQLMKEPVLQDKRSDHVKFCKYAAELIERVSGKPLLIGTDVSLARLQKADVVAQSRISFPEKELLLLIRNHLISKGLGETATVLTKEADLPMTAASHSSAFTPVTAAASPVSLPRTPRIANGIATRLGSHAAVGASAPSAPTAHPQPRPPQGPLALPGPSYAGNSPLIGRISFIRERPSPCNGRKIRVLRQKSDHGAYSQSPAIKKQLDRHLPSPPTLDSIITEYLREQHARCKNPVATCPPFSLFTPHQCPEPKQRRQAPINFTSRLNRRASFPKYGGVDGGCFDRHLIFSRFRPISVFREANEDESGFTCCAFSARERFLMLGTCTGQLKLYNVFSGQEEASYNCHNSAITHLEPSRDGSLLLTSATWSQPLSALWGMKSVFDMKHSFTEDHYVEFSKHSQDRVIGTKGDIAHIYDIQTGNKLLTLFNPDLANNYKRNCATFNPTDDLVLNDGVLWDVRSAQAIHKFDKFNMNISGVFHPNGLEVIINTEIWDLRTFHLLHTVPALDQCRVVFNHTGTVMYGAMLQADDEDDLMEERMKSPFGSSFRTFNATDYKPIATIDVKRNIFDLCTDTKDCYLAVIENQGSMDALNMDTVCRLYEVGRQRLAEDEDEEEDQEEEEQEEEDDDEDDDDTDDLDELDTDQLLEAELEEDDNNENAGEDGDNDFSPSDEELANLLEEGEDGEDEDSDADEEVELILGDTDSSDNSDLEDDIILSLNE
target,setting,SYPRO Orange fluorescence [a.u.]
WDR5,68.41 °C,6800
DCAF1,47.8 °C,13500
DCAF1,57.41 °C,26400
WDR5,68.01 °C,6900
DCAF1,71.41 °C,53000
WDR5,84.61 °C,38500
WDR5,30 °C,15000
WDR5,92.41 °C,41000

# Series 3
# Structure (SMILES): CCN1/C(=C/C=C2\CCCC(/C=C/C3=[N+](CC)c4ccccc4C3(C)C)=C2NCCCCCCCCN2CCC(Nc3nc4ccccc4n3Cc3ccc(F)cc3)CC2)C(C)(C)c2ccccc21
# Cell line: U-87 MG
# Concentration: concentration not given
# Baseline: DMSO
test,log2 fold change
item: RFTN2 mRNA,1.76
item: GALNTL6 mRNA,6.58
item: ATP6V1G1 mRNA,0.839
item: MAMLD1 mRNA,-1.12
item: HEY1 mRNA,1.12
item: KANK2 mRNA,-2.12
item: HIVEP3 mRNA,-1.44
item: ZUP1 mRNA,0.929

# Mixed results
SMILES,tested on,test,test system,setting,endpoint,result
O=C1CCC(N2Cc3c(ccc4c3OCC43CCN(Cc4ccccc4)CC3O)C2=O)C(=O)N1 (centres unmarked),"CRBN/Zinc finger protein Helios (Homo sapiens, UniProt Q96SW2+Q9UKS7)","degrader, HiBiT",HEK293,1111.11 nM,protein remaining,81.5%
Cn1cc(-c2cccc(CN3CCC4(CC3)COc3c4ccc4c3CN([C@H]3CCC(=O)NC3=O)C4=O)c2)cn1,,metabolic stability,"monkey, liver microsomes",,scaled CLint,55.7 mL/min/kg

# Excerpt of the above (mixed results):
SMILES,tested on,test,test system,setting,endpoint,result
O=C1CCC(N2Cc3c(ccc4c3OCC43CCN(Cc4ccccc4)CC3O)C2=O)C(=O)N1 (centres unmarked),"CRBN/Zinc finger protein Helios (Homo sapiens, UniProt Q96SW2+Q9UKS7)","degrader, HiBiT",HEK293,1111.11 nM,protein remaining,81.5%
Cn1cc(-c2cccc(CN3CCC4(CC3)COc3c4ccc4c3CN([C@H]3CCC(=O)NC3=O)C4=O)c2)cn1,,metabolic stability,"monkey, liver microsomes",,scaled CLint,55.7 mL/min/kg
